Measurements of several laboratories.
Protocols differ between the studies behind these lines. ± gives the spread as reported.

With `CCCC[C@H](NC(=O)CNC(=O)CNC(=O)CN1CCN(CC(=O)O)CCN(CC(=O)O)CCN(CC(=O)O)CC1)C(=O)N[C@H]1CC(=O)NCCCC[C@@H](C(N)=O)NC(=O)[C@H](Cc2c[nH]c3ccccc23)NC(=O)[C@H](CCCNC(=N)N)NC(=O)[C@@H](Cc2ccccc2)NC(=O)[C@H](Cc2c[nH]cn2)NC1=O` [lutetium-177 labelled] the tissue uptake was 9.68 ± 1.95 %ID/g (C57 mouse, female, kidneys; intravenous, 0.037 MBq, 4 h).
`COc1ccc2cc([C@H](C)C(=O)N[C@H](Cc3ccccc3)C(=O)N[C@H](Cc3ccccc3)C(=O)O)ccc2c1` has a critical strain of 1% (oscillatory rheology; hydrogel 0.8 wt%).
The tissue uptake of `N=C(N)NCCC[C@@H]1NC(=O)[C@H](CCCCNC(=O)CC[C@H](NC(=O)CC[C@H](NC(=O)CN2CCN(CC(=O)O)CCN(CC(=O)O)CCN(CC(=O)O)CC2)C(=O)N[C@@H](CCC(=O)NCCCC[C@@H]2NC(=O)[C@@H](Cc3ccccc3)NC(=O)[C@H](CC(=O)O)NC(=O)CNC(=O)[C@H](CCCNC(=N)N)NC2=O)C(=O)NCCCC[C@@H]2NC(=O)[C@@H](Cc3ccccc3)NC(=O)[C@H](CC(=O)O)NC(=O)CNC(=O)[C@H](CCCNC(=N)N)NC2=O)C(=O)NCCCC[C@@H]2NC(=O)[C@@H](Cc3ccccc3)NC(=O)[C@H](CC(=O)O)NC(=O)CNC(=O)[C@H](CCCNC(=N)N)NC2=O)NC(=O)[C@@H](Cc2ccccc2)NC(=O)[C@H](CC(=O)O)NC(=O)CNC1=O` [indium-111 labelled] is reported as 0.63 ± 0.11 %ID/g (female athymic nu/nu mice, muscle; intravenous, 111 kBq, 4 h).
The tissue uptake of `CCCC[C@H](NC(=O)COCCOCCNC(=O)CN1CCN(CC(=O)O)CCN(CC(=O)O)CC1)C(=O)N[C@H]1CC(=O)NCCCC[C@@H](C(N)=O)NC(=O)[C@H](Cc2c[nH]c3ccccc23)NC(=O)[C@H](CCCNC(=N)N)NC(=O)[C@@H](Cc2ccccc2)NC(=O)[C@H](Cc2c[nH]cn2)NC1=O` [copper-64 labelled] is reported as 0.4 ± 0.07 %ID/g (C57 mice, skin; intravenous, 0.37 MBq, 2 h).
With `CC1(C)C(/C=C/C2=C(Oc3ccc(CCC(=O)N[C@@H](CSC4CC(=O)N(CCNC(=O)CN5CCN(CC(=O)O)CCN(CC(=O)O)CCN(CC(=O)O)CC5)C4=O)C(=O)NCCCC[C@@H]4NC(=O)[C@@H](Cc5ccc(O)cc5)NC(=O)[C@H](CC(=O)O)NC(=O)CNC(=O)[C@H](CCCNC(=N)N)NC4=O)cc3)C(=C/C=C3/N(CCC[N+](C)(C)C)c4ccc(S(=O)(=O)O)cc4C3(C)C)/CCC2)=[N+](CCC[N+](C)(C)C)c2ccc(S(=O)(=O)O)cc21` (stereo partly shown) the emission maximum was 790 nm.
Under “critical aggregation concentration”, `CCCCC/C=C\C/C=C\CCCCCCCC(=O)OC[C@H](NC(=O)[C@H](Cc1c[nH]c2ccccc12)NC(=O)[C@H](Cc1c[nH]cn1)NC(=O)[C@@H]1CCC(=O)N1)C(=O)N[C@@H](Cc1ccc(O)cc1)C(=O)N[C@H](CC(C)C)C(=O)N[C@@H](CC(C)C)C(=O)N[C@@H](CCCNC(=N)N)C(=O)N1CCC[C@H]1C(=O)NCC` is recorded as 14.1 µg/mL (deionized water).
`Cc1cc(-c2ccc(NC(=O)[C@H](CCCCNC(=O)CCN3C(=O)CC(SCCC(=O)N[C@H](Cc4ccccc4)C(=O)N[C@H]4CSSC[C@@H](C(=O)N[C@H](C(=O)O)[C@@H](C)O)NC(=O)[C@H]([C@@H](C)O)NC(=O)[C@H](CCCCN)NC(=O)[C@@H](Cc5c[nH]c6ccccc56)NC(=O)[C@H](Cc5ccc(O)cc5)NC4=O)C3=O)NC(=O)CN3CCN(CC(=O)O)CCN(CC(=O)O)CCN(CC(=O)O)CC3)c(C)c2)ccc1N=Nc1ccc2c(S(=O)(=O)O)cc(S(=O)(=O)O)c(N)c2c1O` (stereo partly shown) [lutetium-177 labelled] gave an absorbed dose of 0.84 ± 0.07 Gy/GBq (metastatic NET patients, liver metastases).
With `CC(C)C[C@H](NC(=O)[C@H](Cc1ccc(O)cc1)NC(=O)[C@@H](CCCNC(=N)N)NC(=O)[C@@H](CO)NC(=O)[C@H](Cc1ccccc1)NC(=O)[C@H](CC1CCCCC1)NC(=O)[C@H](CC(=O)O)NC(=O)CN1CCCN2CCN(CCCN(CC(=O)O)CC2)CC1)C(=O)N[C@@H](Cc1c[nH]c2ccccc12)C(=O)N[C@@H](CO)C(=O)O` [copper-64 labelled] the tissue uptake was 1.1 ± 0.4 %ID/g (female NMRI nude mice, bone; 1 h p.i.).
With `CCCC[C@H](NC(=O)CNC(=O)CNC(=O)CN1CCN(CC(=O)O)CCN(CC(=O)O)CC1)C(=O)N[C@H]1CC(=O)NCCCC[C@@H](C(N)=O)NC(=O)[C@H](Cc2c[nH]c3ccccc23)NC(=O)[C@H](CCCNC(=N)N)NC(=O)[C@@H](Cc2ccccc2)NC(=O)[C@H](Cc2c[nH]cn2)NC1=O` [technetium-99m labelled] the tissue uptake was 0.08 ± 0.07 %ID/g (C57 mouse, heart; iv, 0.037 MBq, 24 h).
`N=C(N)NCCC[C@@H]1NC(=O)[C@H](CCCCNC(=O)CNC(=O)CNC(=O)CNC(=O)CC[C@H](NC(=O)CNC(=O)CNC(=O)CNC(=O)CC[C@H](NC(=O)CN2CCN(CC(=O)O)CCN(CC(=O)O)CCN(CC(=O)O)CC2)C(=O)NCC(=O)NCC(=O)NCC(=O)N[C@@H](CCC(=O)NCC(=O)NCC(=O)NCC(=O)NCCCC[C@@H]2NC(=O)[C@@H](Cc3ccccc3)NC(=O)[C@H](CC(=O)O)NC(=O)CNC(=O)[C@H](CCCNC(=N)N)NC2=O)C(=O)NCC(=O)NCC(=O)NCC(=O)NCCCC[C@@H]2NC(=O)[C@@H](Cc3ccccc3)NC(=O)[C@H](CC(=O)O)NC(=O)CNC(=O)[C@H](CCCNC(=N)N)NC2=O)C(=O)NCC(=O)NCC(=O)NCC(=O)NCCCC[C@@H]2NC(=O)[C@@H](Cc3ccccc3)NC(=O)[C@H](CC(=O)O)NC(=O)CNC(=O)[C@H](CCCNC(=N)N)NC2=O)NC(=O)[C@@H](Cc2ccccc2)NC(=O)[C@H](CC(=O)O)NC(=O)CNC1=O` [indium-111 labelled] gave a tissue uptake of 3.65 ± 0.87 %ID/g (female athymic nu/nu mice, lungs; intravenous, 0.5 h).
`CCCC[C@H](NC(=O)CCCCCCCNC(=O)CN1CCN(CC(=O)O)CCN(CC(=O)O)CC1)C(=O)N[C@H]1CC(=O)NCCCC[C@@H](C(N)=O)NC(=O)[C@H](Cc2c[nH]c3ccccc23)NC(=O)[C@H](CCCNC(=N)N)NC(=O)[C@@H](Cc2ccccc2)NC(=O)[C@H](Cc2c[nH]cn2)NC1=O` [copper-64 labelled] has a tissue uptake of 0.11 ± 0.06 %ID/g (C57 mice, muscle; intravenous, 0.37 MBq, 2 h).
`N=C(N)NCCC[C@@H]1NC(=O)[C@H](CCCCNC(=O)CNC(=O)CNC(=O)CNC(=O)CC[C@H](NC(=O)CNC(=O)CNC(=O)CNC(=O)CN2CCN(CC(=O)O)CCN(CC(=O)O)CCN(CC(=O)O)CC2)C(=O)NCC(=O)NCC(=O)NCC(=O)NCCCC[C@@H]2NC(=O)[C@@H](Cc3ccccc3)NC(=O)[C@H](CC(=O)O)NC(=O)CNC(=O)[C@H](CCCNC(=N)N)NC2=O)NC(=O)[C@@H](Cc2ccccc2)NC(=O)[C@H](CC(=O)O)NC(=O)CNC1=O` [indium-111 labelled] has a tissue uptake of 0.85 ± 0.09 %ID/g (female athymic nu/nu mice, liver; intravenous, 72 h).
`Cc1cc(-c2ccc(NC(=O)[C@H](CCCCNC(=O)CCOCCOCCC(=O)N[C@H](Cc3ccccc3)C(=O)N[C@H]3CSSC[C@@H](C(=O)N[C@H](C(=O)O)[C@@H](C)O)NC(=O)[C@H]([C@@H](C)O)NC(=O)[C@H](CCCCN)NC(=O)[C@@H](Cc4c[nH]c5ccccc45)NC(=O)[C@H](Cc4ccc(O)cc4)NC3=O)NC(=O)CN3CCN(CC(=O)O)CCN(CC(=O)O)CCN(CC(=O)O)CC3)c(C)c2)ccc1N=Nc1ccc2c(S(=O)(=O)O)cc(S(=O)(=O)O)c(N)c2c1O` [lutetium-177 labelled] has an absorbed dose of 2.14 ± 1.41 Gy/GBq (SPECT/CT dosimetry; patients with metastatic NETs, all tumour lesions).

Repeated from above:
`N=C(N)NCCC[C@@H]1NC(=O)[C@H](CCCCNC(=O)CNC(=O)CNC(=O)CNC(=O)CC[C@H](NC(=O)CNC(=O)CNC(=O)CNC(=O)CC[C@H](NC(=O)CN2CCN(CC(=O)O)CCN(CC(=O)O)CCN(CC(=O)O)CC2)C(=O)NCC(=O)NCC(=O)NCC(=O)N[C@@H](CCC(=O)NCC(=O)NCC(=O)NCC(=O)NCCCC[C@@H]2NC(=O)[C@@H](Cc3ccccc3)NC(=O)[C@H](CC(=O)O)NC(=O)CNC(=O)[C@H](CCCNC(=N)N)NC2=O)C(=O)NCC(=O)NCC(=O)NCC(=O)NCCCC[C@@H]2NC(=O)[C@@H](Cc3ccccc3)NC(=O)[C@H](CC(=O)O)NC(=O)CNC(=O)[C@H](CCCNC(=N)N)NC2=O)C(=O)NCC(=O)NCC(=O)NCC(=O)NCCCC[C@@H]2NC(=O)[C@@H](Cc3ccccc3)NC(=O)[C@H](CC(=O)O)NC(=O)CNC(=O)[C@H](CCCNC(=N)N)NC2=O)NC(=O)[C@@H](Cc2ccccc2)NC(=O)[C@H](CC(=O)O)NC(=O)CNC1=O` [indium-111 labelled] gave a tissue uptake of 3.65 ± 0.87 %ID/g (female athymic nu/nu mice, lungs; intravenous, 0.5 h).
`CCCC[C@H](NC(=O)CCCCCCCNC(=O)CN1CCN(CC(=O)O)CCN(CC(=O)O)CC1)C(=O)N[C@H]1CC(=O)NCCCC[C@@H](C(N)=O)NC(=O)[C@H](Cc2c[nH]c3ccccc23)NC(=O)[C@H](CCCNC(=N)N)NC(=O)[C@@H](Cc2ccccc2)NC(=O)[C@H](Cc2c[nH]cn2)NC1=O` [copper-64 labelled] has a tissue uptake of 0.11 ± 0.06 %ID/g (C57 mice, muscle; intravenous, 0.37 MBq, 2 h).
